Published values collected from several papers.
Numbered parts are unrelated; each lists some results of a single study.

Block 1 — method: universal PBM; molecule type: double-stranded DNA, one strand shown; sample: in vitro; tested at: not given; direction: higher = stronger binding
Target: Sal-like protein 4, full length isoform B (SALL4, Homo sapiens, UniProt Q9UJQ4-2, residues 1-616)
Setting: 8-mer, flanks averaged, mean of replicates
The E-score of `CGGGAGAA` is reported as -0.157.
`ATCCGGAT` has an E-score of -0.224.
With `ACACCTTG` the E-score was 0.00635.
`TCCTAGAA` gave an E-score of -0.0553.
`CATGCACC` gave an E-score of -0.08.
With `ATAACCCA` the E-score was 0.255.
The E-score of `GCGGCATA` is reported as 0.00896.
`ACGTACCC` gave an E-score of 0.0129.

Block 2 — organism: SARS-CoV-2; read-out: cytopathic effect; cell line: Vero E6; tested at: 10 µM
With `c1cnc2c([O][Ga]([O]c3cccc4cccnc34)[O]c3cccc4cccnc34)cccc2c1` the inhibition was -4.8%.
`C[S+]([O-])CCCCN=C=S` (centres unmarked) gave an inhibition of -2.7%.
With `COc1cc(-c2ccc(/N=N/c3ccc4c(S(=O)(=O)O)cc(S(=O)(=O)O)c(N)c4c3O)c(OC)c2)ccc1/N=N/c1ccc2c(S(=O)(=O)O)cc(S(=O)(=O)O)c(N)c2c1O` the inhibition was -14.2%.
With `CCC[C@H](NC(=O)[C@@H]1[C@H]2CCC[C@H]2CN1C(=O)[C@@H](NC(=O)[C@@H](NC(=O)c1cnccn1)C1CCCCC1)C(C)(C)C)C(=O)C(=O)NC1CC1` the inhibition was -0.44%.

Block 3 — method: protein binding microarray; molecule type: double-stranded DNA, one strand shown; sample: in vitro; tested at: not given; baseline: not given; direction: higher = stronger binding
Target: Histone acetyltransferase KAT6A, winged helix 2, GST fusion (KAT6A, Homo sapiens, UniProt Q92794, residues 85-181)
Setting: 8-mer, flanks averaged, mean of 2 arrays, mostly near background
Construct (chain): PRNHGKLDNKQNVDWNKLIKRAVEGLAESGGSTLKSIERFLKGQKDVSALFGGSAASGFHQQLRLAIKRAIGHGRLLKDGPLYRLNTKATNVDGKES
With `CAAGCAAA` the E-score was 0.0747.
`CCCAACCG` has an E-score of -0.106.
`AAGAAGGG` gave an E-score of -0.0195.
`CGATGGAA` gave an E-score of 0.0377.
`ATGTTTCA` has an E-score of 0.0307.
The E-score of `AGGTCTTA` is reported as -0.0766.
For `CGCCTACC`, the E-score was 0.0816.
With `GTCTGGCA` the E-score was -0.0598.

Block 4 — cell line: HEK-293T; read-out: pseudovirus infection; method: FDA-approved drug library screen; organism: VSV pseudotyped with SARS-CoV-2 spike; tested at: 10 µM; time: 16 h; baseline: vehicle-treated
With `Cc1cccc(C)c1NC(=O)C1CCCCN1C` (centres unmarked) the GFP-positive cells was 70.3%.
`CC1CNc2c(cccc2S(=O)(=O)N[C@@H](CCCNC(=N)N)C(=O)N2CC[C@@H](C)C[C@@H]2C(=O)O)C1` (some centres unmarked) has a GFP-positive cells of 85.1%.
With `CCN1CCN(C(=O)N[C@@H](C(=O)N[C@@H]2C(=O)N3C(C(=O)O)=C(CSc4nnnn4C)CS[C@H]23)c2ccc(O)cc2)C(=O)C1=O` the GFP-positive cells was 79.3%.
`CNC(=O)c1ccccc1Sc1ccc2c(/C=C/c3ccccn3)n[nH]c2c1` gave a GFP-positive cells of 67.7%.
`CC(C)[C@H](N)C(=O)OCCOCn1cnc2c(=O)[nH]c(N)nc21` has a GFP-positive cells of 94.2%.

Block 5 — action: inhibitor; tested at: 20 µM
Target: Replicase polyprotein 1ab, nsp13 helicase (rep, Severe acute respiratory syndrome coronavirus 2, UniProt P0DTD1)
With `COc1ccc(CCC(=O)c2c(O)cc(O[C@@H]3O[C@H](CO)[C@@H](O)[C@H](O)[C@H]3O[C@@H]3O[C@@H](C)[C@H](O)[C@@H](O)[C@H]3O)cc2O)cc1O` the inhibition was 7.2%.
`CN1[C@@H](CC(=O)c2ccccc2)CCC[C@H]1C[C@H](O)c1ccccc1` has an inhibition of 5.1%.
With `CCOC(=O)c1cncn1[C@H](C)c1ccccc1` the inhibition was 1.86%.
The inhibition of `CC(SC(=O)c1cccs1)C(=O)NCC(=O)O` (centres unmarked) is reported as -1.71%.
`CN(C)CCN1C(=O)c2cccc3cc(N)cc(c23)C1=O` gave an inhibition of 17.4%.
For `Cc1cc(Nc2nc(N[C@@H](C)c3ccc(F)cc3)c(C#N)cc2F)n[nH]1`, the inhibition was -2.53%.
With `CCCN(CC1CC1)c1nc(C)nc(Nc2c(Cl)cc(Cl)cc2Cl)c1Cl` the inhibition was 10.4%.
For `CN(C)c1ccc(C(=C2C=CC(=[N+](C)C)C=C2)c2ccc(N(C)C)cc2)cc1`, the inhibition was 107%.
For `NC(=O)c1cc(N2CC2)c([N+](=O)[O-])cc1[N+](=O)[O-]`, the inhibition was 4.24%.
`Nc1nccc2c1ncn2[C@@H]1C=C(CO)[C@@H](O)[C@H]1O` gave an inhibition of 1.77%.
For `CC1(C)S[C@@H]2[C@H](NC(=O)[C@H](C(=O)O)c3ccsc3)C(=O)N2[C@H]1C(=O)O`, the inhibition was -1.05%.
`O=C(O)c1ccccc1NCCc1ccccc1` has an inhibition of 13.8%.
`Cn1c(=O)cc(N2CCC[C@@H](N)C2)n(Cc2cc(F)ccc2C#N)c1=O` has an inhibition of 5.4%.
For `COc1cc2c(NC3CCN(C)CC3)nc(N3CCCN(C)CC3)nc2cc1OCCCN(C)C`, the inhibition was 51.3%.
For `CCC[C@@]1(CCc2ccccc2)CC(O)=C([C@H](CC)c2cccc(NS(=O)(=O)c3ccc(C(F)(F)F)cn3)c2)C(=O)O1`, the inhibition was 7.91%.
For `CC[C@H]1OC(=O)[C@H](C)[C@@H](O[C@H]2C[C@@](C)(OC)[C@@H](O)[C@H](C)O2)[C@H](C)[C@@H](O[C@@H]2O[C@H](C)C[C@H](N(C)C)[C@H]2O)[C@](C)(OC)C[C@@H](C)C(=O)[C@H](C)[C@@H](O)[C@]1(C)O`, the inhibition was 2.77%.
`COc1ccc2nc3c(c(N)c2c1)CCCC3` gave an inhibition of 9.64%.
For `O=C(CCN1CCN(C(=O)OCc2cc(Cl)cc(Cl)c2)CC1)c1ccc2[nH]c(=O)oc2c1`, the inhibition was 2.65%.
The inhibition of `Cc1cc(C)n(-c2cccc([C@H](CC(=O)O)CN3CC[C@@H](CCc4ccc5c(n4)NCCC5)C3)c2)n1` is reported as 3.76%.
`Cc1ccc(NC(=O)C(C)C)cc1C1CCN(Cc2ccc(Oc3ccc(F)c(F)c3)cc2)CC1` gave an inhibition of 1.56%.
`CCn1c2ccccc2c2cc(CNC)ccc21` gave an inhibition of 9.89%.
The inhibition of `CO[C@@H]1[C@@H](O[C@@H]2O[C@H](C)[C@@H](O[C@H]3C[C@@](C)(O)[C@@H](OC(=O)CC(C)C)[C@H](C)O3)[C@H](N(C)C)[C@H]2O)[C@@H](CC=O)C[C@@H](C)[C@@H](O)/C=C/C=C/C[C@@H](C)OC(=O)C[C@H]1OC(C)=O` is reported as -0.74%.
`CCN(CC)c1ccc(/C=N/NC(=O)c2ccc(O)cc2)cc1` gave an inhibition of 5.99%.
With `O=C(O)CCc1c[nH]c2ccccc12` the inhibition was -2.05%.
For `CN(Cc1ccccc1)C(=O)[C@H](Cc1ccc2ccccc2c1)NC(=O)[C@@H]1CCCN1C(=O)Nc1ccccc1[N+](=O)[O-]`, the inhibition was 4.41%.

Some of these lines once more (block 5):
With `O=C(O)CCc1c[nH]c2ccccc12` the inhibition was -2.05%.
`Cc1ccc(NC(=O)C(C)C)cc1C1CCN(Cc2ccc(Oc3ccc(F)c(F)c3)cc2)CC1` gave an inhibition of 1.56%.
For `CC[C@H]1OC(=O)[C@H](C)[C@@H](O[C@H]2C[C@@](C)(OC)[C@@H](O)[C@H](C)O2)[C@H](C)[C@@H](O[C@@H]2O[C@H](C)C[C@H](N(C)C)[C@H]2O)[C@](C)(OC)C[C@@H](C)C(=O)[C@H](C)[C@@H](O)[C@]1(C)O`, the inhibition was 2.77%.
`CN(C)CCN1C(=O)c2cccc3cc(N)cc(c23)C1=O` gave an inhibition of 17.4%.
`CCn1c2ccccc2c2cc(CNC)ccc21` gave an inhibition of 9.89%.
